Experimental data gathered from unrelated publications.
Protocols differ between the studies behind these lines. Several values in a cell are separate wells, animals, samples, runs or records. ± marks the error that the study gave. Values after ≈ are worked out from the molar mass of the structure shown.
Organism: Mycobacterium tuberculosis

Compound | test | system | conditions | scale | quantity | value
Cc1nc2cc(C(F)(F)F)ccn2c1C(=O)NCc1ccc2oc(-c3ccc(OC(F)(F)F)cc3)nc2c1 | microbial growth | H37RV |  |  | MIC90 | > 25 µM
Clc1ccc(Nc2nc(-c3ccccn3)cs2)nc1 | microbial growth |  |  |  | IC50 | 2320 nM
CC(C)[C@H]1NC(=O)[C@H](Cc2ccccc2)NC(=O)[C@@H](C(C)C)NC(=O)[C@@H](C)NC(=O)[C@H](C)NC(=O)[C@@H](Cc2c(-c3ccc(-c4ccc5ccccc5c4)cc3)[nH]c3ccccc23)NC(=O)[C@@H](CO)NC1=O |  | H37Ra |  |  | MIC90 | > 10 µM
Cc1occc1C(=O)Nc1nc(-c2ccccn2)nc2ccsc12 | microbial growth |  |  |  | IC50 | 1390 nM
NC(=O)c1cc(-c2ccsc2)ccc1OCCc1cc(F)cc(F)c1 |  | H37Rv-LP |  | relative to: HepG2 CC50 over Mtb IC90 | selectivity index | 300
CCc1nc2cc(OC(F)(F)F)ccn2c1C(=O)NCc1ccc2oc(-c3ccc(OC(F)(F)F)cc3)nc2c1 | microbial growth | H37RV |  |  | MIC90 | > 25 µM
NC(=O)c1cc(C(F)F)ccc1OCCc1cccc(F)c1 | growth | H37Rv-LP | 120 h |  | IC90 | 12000 ± 4900 nM
CCc1ccc(CN2CCC3(CC2)OCCc2sccc23)s1 | bacterial growth, inhibitor | mmpL3-TetON |  |  | IC50 | 940 nM
CCC(CO)NCCNC(CC)CO.COc1cc(C=NNC(=O)c2ccncc2)ccc1OC(=O)CN1C(=O)CSC1=O | two-drug checkerboard | H37Rv | concentration not given, unit not given | lower means more synergy | FICI | 2
COc1ccc2ncc(F)c(C[C@H](O)[C@H]3OC[C@H](NCc4ccc5c(n4)NC(=O)CO5)CO3)c2c1 |  | H37Rv, mouse, IFN-gamma knockout | intraperitoneal, 150 mg/kg twice daily, 10 days | relative to: untreated | lung bacterial burden reduction | ~3 log10
Cc1nc2ccc(Br)cn2c1C(=O)NCc1ccc2oc(-c3ccc(OC(F)(F)F)cc3)nc2c1 | microbial growth | H37RV |  |  | MIC90 | 0.2 µM (≈ 0.109 µg/mL)
CCN(Cc1ccc2c(c1)OCO2)C(=O)CSc1nc(NC)c2ccccc2n1 | bacterial growth, inhibitor | mmpL3-TetON |  |  | IC50 | 3560 nM
Cc1c(-c2ccc(Oc3ccc(OC(F)(F)F)cc3)nc2)[nH]c2ccccc2c1=O | microbial growth | H37RV |  |  | IC90 | 4950 nM
NC(=O)c1cc(-c2ccco2)ccc1OCCc1cccc(F)c1 | growth | H37Rv-LP | 120 h |  | IC90 | 580 ± 340 nM
Cc1cc(Oc2nc(N3CC[C@@H](c4ccncc4)C3)ncc2F)[nH]n1 | OD | H37Rv PurF CRISPRi knockdown | 0.0625 µM, together with: anhydrotetracycline low |  | normalised growth | 4% and 5%
Cc1nc(=O)c2cc(CN(C)c3ccc(C(=O)NCc4ccccn4)s3)ccc2[nH]1 | bacterial growth, inhibitor | H37Rv wild type |  |  | MIC90 | > 100 µM
COc1ccc(CCNC(=O)C2(n3cnnn3)CCCCC2)cc1 | microbial growth |  |  |  | IC50 | 2120 nM
COc1ccccc1-c1ccc(OCCc2cccc(F)c2)c(C(N)=O)c1 | growth | H37Rv-LP | 120 h |  | IC90 | 49000 ± 19000 nM
Cc1c(-c2ccc(N3CCCCC3)cc2)[nH]c2cc(F)cc(F)c2c1=O | time-kill | H37Rv | concentration not given, 7 days |  | kill rate | 0.05 h⁻¹

Compound | test | system | conditions | scale | quantity | value
CC(C)=CCC/C(C)=C/CNCCNC1C2CC3CC(C2)CC1C3 (stereo not shown) | microbial growth |  |  |  | IC50 | 560 nM
NC(=O)c1cc(-c2ccc(C(F)(F)F)nc2)ccc1OCCc1cccc(F)c1 | growth | H37Rv-LP | 120 h |  | IC90 | > 100000 nM
NNC(=O)c1ccncc1.O=C(CN1C(=O)CSC1=O)Oc1ccc(C=NNC(=O)c2ccncc2)cc1Cl | two-drug checkerboard | H37Rv | concentration not given, unit not given | lower means more synergy | FICI | 0.737
Cc1ccn2c(-c3csc(Nc4ccccn4)n3)c(C)nc2c1 | microbial growth |  |  |  | MIC50 | 7030 µM (≈ 2260 µg/mL)
Cc1nc2ccc(Br)cn2c1C(=O)NCc1ccc2oc(-c3ccc(Cl)cc3)nc2c1 | microbial growth | H37RV |  |  | MIC90 | 0.2 µM (≈ 0.0992 µg/mL)
CCC(CO)NCCNC(CC)CO.CCOc1cc(C=NNC(=O)c2ccncc2)ccc1OC(=O)CN1C(=O)CSC1=O | two-drug checkerboard | H37Rv | concentration not given, unit not given | lower means more synergy | FICI | 2
CCc1nc2ccc(C(F)(F)F)cn2c1C(=O)NCc1ccc2oc(-c3ccc(Cl)cc3)nc2c1 | microbial growth | H37RV |  |  | MIC90 | > 10 µM
NC(=S)N/N=C/c1ccc(OC(=O)/C=C2\SC(=O)NC2=O)cc1 | microbial growth, resazurin | H37RV |  |  | MIC | 2.85 µM (≈ 0.999 µg/mL)
N#CC1(C(=O)NCCCNc2ccc(C(F)(F)F)cn2)CCCC1 | bacterial growth, inhibitor | mmpL3-TetON |  |  | IC50 | 310 nM
CCC(CO)NCCNC(CC)CO.CCOc1cc(C=NNC(=S)Nc2cccc(Cl)c2)ccc1OC(=O)CN1C(=O)CSC1=O | two-drug checkerboard | H37Rv | concentration not given, unit not given | lower means more synergy | FICI | 2
COc1ccc2nccc(CC[C@H]3OC[C@H](NC(=O)c4ccc5c(c4)NC(=O)CO5)CO3)c2c1 | growth inhibition, checkerboard | H37Rv | together with: pretomanid |  | FIC index | 1
O=C(C=Cc1cccs1)N1CCN(Cc2ccc3c(c2)OCO3)CC1 | bacterial growth, inhibitor | mmpL3-TetON |  |  | IC50 | 790 nM
CCc1nc2ccc(Br)cn2c1C(=O)NCc1ccc2oc(-c3ccc(OC(F)(F)F)cc3)nc2c1 | microbial growth | H37RV |  |  | MIC90 | 0.4 µM (≈ 0.224 µg/mL)
O=C(CN1C(=O)CSC1=O)Oc1ccc(/C=N/NC(=O)c2ccccn2)cc1Br | microbial growth, resazurin | H37RV |  |  | MIC | 4.19 µM (≈ 2 µg/mL)
CCc1nc2ccc(Br)cn2c1C(=O)NCc1ccc2oc(-c3ccc(Cl)cc3)nc2c1 | microbial growth | H37RV |  |  | MIC90 | 0.2 µM (≈ 0.102 µg/mL)
Cc1nc(=O)c2cc(CN(C)c3ccc(C(=O)NCc4cccc(C(=O)O)c4)s3)ccc2[nH]1 | bacterial growth, inhibitor | H37Rv wild type |  |  | MIC90 | > 100 µM
Cc1nc2cc(Br)ccn2c1C(=O)NCc1ccc2oc(-c3ccc(OC(F)(F)F)cc3)nc2c1 | microbial growth | H37RV |  |  | MIC90 | > 10 µM
Cc1ccccc1/C=C/C(=O)N[C@H]1COC(=O)[C@H](CC(=O)O)NC(=O)[C@H]([C@@H](O)C(=O)c2ccccc2N)NC(=O)[C@@H](Cc2ccccc2)NC(=O)[C@@H](NC(=O)[C@@H](Cc2ccccc2)NC(=O)CN)[C@@H](C)OC1=O |  | mc2 6230 | 5 days, 37 °C |  | MIC50 | inactive
